Measurements gathered from unrelated publications.
Numbered parts are unrelated; each lists some results of a single study. Positions count from the first letter of the parent shown.

Set 1 — target: CRIPT, C-terminal peptide; technique: DHFR complementation, deep sequencing; medium: yeast; reference: wild type; direction: higher = weaker binding
Setting: single substitutions, model-inferred values
Starting sequence: ERBIN, PDZ domain 1 (human); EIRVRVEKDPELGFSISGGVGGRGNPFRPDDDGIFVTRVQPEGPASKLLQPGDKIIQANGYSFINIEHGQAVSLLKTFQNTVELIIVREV; partner TKNYKQTSV
Under “binding free energy change”, `S46A` is recorded as -0.0585 kcal/mol.
`P10L`: “binding free energy change” -0.477 kcal/mol.
For `P41D`, “binding free energy change” read 0.275 kcal/mol.
`G24K`: “binding free energy change” 1.22 kcal/mol.
`N65G`: “binding free energy change” -0.0971 kcal/mol.
Under “binding free energy change”, `V39N` is recorded as 1.05 kcal/mol.
For `T77Q`, “binding free energy change” read 0.0161 kcal/mol.
Under “binding free energy change”, `E67I` is recorded as 0.351 kcal/mol.

Set 2 — technique: protein-binding microarray; molecule type: double-stranded DNA, one strand shown; medium: in vitro; tested at: 940 nM top; setting: 60-bp whole probe; together with: salmon DNA 0.4 mg/ml; reference: random background probes; direction: higher = stronger binding
Target: Interferon regulatory factor 5, full length, phosphomimetic (IRF5, Homo sapiens, UniProt Q13568-2, residues 1-514, S451D/S453D/S456D/S462D)
All sequences stand within: GCCTAGCAC … GTGCTAGGTCTTGATTCGCTTGACGCTGCTG
`TCACATTTTGTTTTTCAACT` — result for “fitted relative affinity”: 1.2 z-score.
`GACGGTATCGGTTTCGGGAA` — result for “fitted relative affinity”: 9.96 z-score.
`TCAGGTTCTCTTTTATTACT` — result for “fitted relative affinity”: 1.18 z-score.
For `CTAGTAGCCTAAGGCTACCG`, “fitted relative affinity” read -0.671 z-score.
`TTAGGTATCGGTCTCTGTTA` — result for “fitted relative affinity”: 9.93 z-score.
For `TAAGGTTTCCTACTGCTTTA`, “fitted relative affinity” read 0.725 z-score.
`TTAGTACTGCTTATCCTTTA` — result for “fitted relative affinity”: 0.408 z-score.
Under “fitted relative affinity”, `GACGATTTCAGTCTCGGGAC` is recorded as 1.51 z-score.

Further values, each from its own experiment
P1: viral docking peptide; YKVKRRLVFGADD; partner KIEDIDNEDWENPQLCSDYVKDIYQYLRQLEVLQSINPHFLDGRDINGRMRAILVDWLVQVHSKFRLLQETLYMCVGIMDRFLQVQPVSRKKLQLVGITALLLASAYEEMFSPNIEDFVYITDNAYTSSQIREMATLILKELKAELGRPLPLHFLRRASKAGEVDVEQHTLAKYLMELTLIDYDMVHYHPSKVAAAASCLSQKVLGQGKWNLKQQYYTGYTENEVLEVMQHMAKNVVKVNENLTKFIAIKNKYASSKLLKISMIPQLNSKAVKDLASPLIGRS
P2: PafA, mature enzyme, eGFP fusion (Elizabethkingia meningoseptica, UniProt Q9KJX5); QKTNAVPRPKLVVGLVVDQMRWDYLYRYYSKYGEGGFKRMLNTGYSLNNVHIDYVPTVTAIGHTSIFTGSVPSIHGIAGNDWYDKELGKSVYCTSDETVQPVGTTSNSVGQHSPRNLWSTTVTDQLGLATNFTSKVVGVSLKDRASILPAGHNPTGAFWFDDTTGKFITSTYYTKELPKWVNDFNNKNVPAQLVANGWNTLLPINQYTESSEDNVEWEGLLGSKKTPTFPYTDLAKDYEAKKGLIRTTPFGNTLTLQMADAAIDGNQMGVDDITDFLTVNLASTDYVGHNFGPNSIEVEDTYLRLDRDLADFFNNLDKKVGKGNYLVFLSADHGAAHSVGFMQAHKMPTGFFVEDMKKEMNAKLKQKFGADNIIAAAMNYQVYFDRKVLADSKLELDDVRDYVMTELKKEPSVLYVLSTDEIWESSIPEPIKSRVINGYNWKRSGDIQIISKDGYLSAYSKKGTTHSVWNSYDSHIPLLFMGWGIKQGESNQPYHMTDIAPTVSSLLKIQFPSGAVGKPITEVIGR
`P1 A11L`: “normalised enrichment score” 1.59 (CCNB2, cyclin fold, Cln2 fusion (human); yeast growth competition, sequencing; yeast; strong parent motif; reference: not given, higher = stronger binding).
`P2 E212V`: “phosphate dissociation constant” 573 µM (inorganic phosphate, free oxyanion; microfluidic competitive inhibition; in vitro, cell-free expressed; not given, derived from inhibition constants, unchanged parent 615000 nM; lower = stronger binding).
